Published values from different studies.
Every numbered part comes from another study and shows a few of its results, in no order. Changes are numbered by the printed parent chain.

Set 1
Target: Interferon regulatory factor 5, full length, phosphomimetic (IRF5, Homo sapiens, UniProt Q13568-2, residues 1-514, K96S/S451D/S453D/S456D/S462D)
Technique: protein-binding microarray
Form: double-stranded DNA, one strand shown
Sample: in vitro
Tested at: 250 nM
Setting: 60-bp whole probe
Together with: salmon DNA 0.4 mg/ml
Relative to: random background probes
Direction: higher = stronger binding
Shared flanks, not repeated: GCCTAGCAC … GTCTTGATTCGCTTGACGCTGCTG
`TCAGGTTTCGGGTATCGGTTAGTGCTA` has a log fluorescence of 9.29 z-score.
With `ATGCTACTGCATTTTTTTTTGTGCTAG` the log fluorescence was 0.315 z-score.
For `TTAGGTTTCGGGACTGTGTTAGTGCTA`, the log fluorescence was 6.16 z-score.
With `TCATCTTTCCAACTCTGACTGTGCTAG` the log fluorescence was 0.425 z-score.
With `GACGATCTCAGTTTAGAGACGTGCTAG` the log fluorescence was -0.21 z-score.
For `GACGGACTGGGTCTCGGGATGTGCTAG`, the log fluorescence was -0.51 z-score.
`GACGAACTGAGTACCGAGACGTGCTAG` gave a log fluorescence of -0.306 z-score.
`TTAGGTATCATTTTCCTTTAGTGCTAG` has a log fluorescence of 1.94 z-score.
The log fluorescence of `ATATATATATTGTTAGTGTAGTGCTAG` is reported as 0.826 z-score.
`TTAGAACTGAGGCTCGATTAGTGCTAG` gave a log fluorescence of -0.383 z-score.
`AGGGAGGTCTCTCCCGACCTGTGCTAG` gave a log fluorescence of -0.977 z-score.
With `TCAGATTTTGTCCTCCCACTGTGCTAG` the log fluorescence was 0.222 z-score.
With `CTCATTTTCGTTTTGTGTCTGTGCTAG` the log fluorescence was 7.01 z-score.
The log fluorescence of `TTAGATTACAGTTCCGATTAGTGCTAG` is reported as 0.973 z-score.
`GACGGTAACGGGTATCGGGACGTGCTA` gave a log fluorescence of 0.501 z-score.
For `TTAGGTCTCCGTTTCGGTTAGTGCTAG`, the log fluorescence was 7.51 z-score.
The log fluorescence of `GACGGTATACTTATCCTGACGTGCTAG` is reported as 0.0482 z-score.
With `TTAGGTGTCGACACTGGGTTAGTGCTA` the log fluorescence was -0.111 z-score.

Set 2
Target: CCNA1, cyclin fold, Cln2 fusion (human)
Technique: yeast growth competition, sequencing
Sample: yeast
Setting: weak parent motif
Relative to: not given
Direction: higher = stronger binding
Starting sequence: PKMYT1 docking peptide (human); SFEPRNLLSLFED; partner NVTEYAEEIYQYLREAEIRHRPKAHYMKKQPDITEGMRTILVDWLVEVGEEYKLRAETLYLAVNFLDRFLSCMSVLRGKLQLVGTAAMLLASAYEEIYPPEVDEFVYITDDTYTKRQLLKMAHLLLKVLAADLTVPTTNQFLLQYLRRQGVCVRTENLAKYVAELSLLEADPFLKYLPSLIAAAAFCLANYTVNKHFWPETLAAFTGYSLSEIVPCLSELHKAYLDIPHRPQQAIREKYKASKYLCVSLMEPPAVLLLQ
`SFEPRHLLSLFED [N6H]` — result for “normalised enrichment score”: 0.202.
For `SFEYRNLLSLFED [P4Y]`, “normalised enrichment score” read 0.0394.
`SFEPRMLLSLFED [N6M]`: “normalised enrichment score” -0.555.
`SFEPRNKLSLFED [L7K]` — result for “normalised enrichment score”: 0.16.
`SFKPRNLLSLFED [E3K]` — result for “normalised enrichment score”: 0.187.
Under “normalised enrichment score”, `SFEWRNLLSLFED [P4W]` is recorded as 0.182.
For `SFEPRNLLSLFEG [D13G]`, “normalised enrichment score” read 0.0451.
For `SFYPRNLLSLFED [E3Y]`, “normalised enrichment score” read 0.566.
Under “normalised enrichment score”, `SFENRNLLSLFED [P4N]` is recorded as 0.128.
`SFEPCNLLSLFED [R5C]`: “normalised enrichment score” 0.0128.
`SEEPRNLLSLFED [F2E]`: “normalised enrichment score” -0.119.
`SFEPYNLLSLFED [R5Y]` — result for “normalised enrichment score”: 0.177.
`SFEPRNLLSQFED [L10Q]`: “normalised enrichment score” 0.289.
`SFEPRQLLSLFED [N6Q]` — result for “normalised enrichment score”: 0.304.
`SFEPRNLNSLFED [L8N]`: “normalised enrichment score” 0.316.
`SFIPRNLLSLFED [E3I]`: “normalised enrichment score” 0.0663.
`SLEPRNLLSLFED [F2L]` — result for “normalised enrichment score”: 0.257.
For `SFEPRNLLSLMED [F11M]`, “normalised enrichment score” read 0.062.

Set 3
Target: RNA binding protein fox-1 homolog 2, RRM domain, GST-SBP tag (RBFOX2, Homo sapiens, UniProt O43251-10, residues 100-194)
Technique: RNA Bind-n-Seq
Form: RNA
Sample: in vitro
Tested at: 365 nM
Setting: natural RNA segment, single round, ends assumed
Relative to: no-protein control
Direction: higher = stronger binding
Shared flanks, not repeated: GGGAGUUCUACAGUCCGACGAUC … UGGAAUUCUCGGGUGCCAA
Construct (chain): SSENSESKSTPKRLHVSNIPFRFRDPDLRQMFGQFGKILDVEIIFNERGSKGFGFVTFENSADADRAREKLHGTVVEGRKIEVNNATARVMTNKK
`UUAAAAACAAAACAAAACUGGGAUCAGAUGGCAUCCUAGUUUUGGUACCGGGGCAUUGCCAGUCACCUGAGCUAAGGAAGCAGGCAGGCUGGUGGUUCUUCUGUUCUCAA`: “RBNS enrichment (R)” 0.67.
`AGUUCUACAAACUGAUCUCCUUAACCACAACCAAGAUAGGCAUGUCACCAUGUCAAUUCCCCUUUUCUUAGCAACCAGUUCAAUGUUCUGCCCCUUCAAUCUUACCUUUU` — result for “RBNS enrichment (R)”: 0.882.
`AUGUUUAAAAAUUGGAAGGAAAUACUACUCAUAUCUUCAUUGUCACUUUGUCUUACCUCAAUUGAGUAACAGAAUAUAGCUCCUGAAGGAAACACUGAUUUGCUUUCUGU`: “RBNS enrichment (R)” 0.485.
For `UUGUUUCGCUGACCCCGCUCUUGUGUGUUCCCUCUGGUGCCCACCCCAGGGCAUCUGCCAACUCCAGCAUCAACUCAACUCCCACCGCAUACCUGGUGCUGUCCCUGGGC`, “RBNS enrichment (R)” read 0.713.
For `GAUAUUAAAAAAGUAGAAUAUUUUGUGUUUAUCUCCCACACAGCCCCAAAUUCUUUUGUUGUGUGUGCGAAGGGGGUUUUGCGCACUGUGCCAAGCCUUGUCCACUGGAA`, “RBNS enrichment (R)” read 2.91.
Under “RBNS enrichment (R)”, `UUCUCUCAGUGGCACAUUUUGCUUUUUCUGAGCCCCAAAUACAUUGCCUGGGCAUGAACAUUGUUACCGUAAAUUGCACAUGGUCAUGGACUGAAUUAUGUGACUUUAAA` is recorded as 0.906.
For `UGUGGACACCAAAAUGGCUUAACUGAGAUACAGUGAAAACAUGACAAAUAAACCAACUUUUUACAAGUGCCUCGUCAUCUUUGUAAACGGAGAGCAGAAAGCUUGUUGUG`, “RBNS enrichment (R)” read 0.249.
`GAACAACCUCACUGAGGAUUUCCUCCCGGCAGAAAAGCAGCAAGCUCUGCAAAUAUCCCAAAGUUAUGCCUCUGAACACAUGUCUUCUAUAUGCAAGUUUUGUGAAACCU`: “RBNS enrichment (R)” 0.455.
Under “RBNS enrichment (R)”, `GCCCUUGGCGGGAGCUUUGUGGGGGCGAGCCUGAAGAGGAAGGAACAGUGCUACUUCUAAGUGAUGUUUAUUUUCUGUACCUGAAAUGGUUGCAAUUUAGAGAUGUUCCA` is recorded as 0.513.
`UAGCACUAAAAAGAUUGAGUUAAAAAUAAGAUUUAAAAAAUAUAUAUUGAUUAAAAUGUACCACUAGAAAGGUAUUACAUGUGUAUAAGUAUGGGUAAAAAGGCAAGUCA`: “RBNS enrichment (R)” 0.772.
Under “RBNS enrichment (R)”, `CCCUGCCCAGCCAGCCAUCGGAAGAGAGGGCUGAGCCAUGGGGGUUUGGGGCUAAGAAGUUCACCAGCCCUGAGCCAUGGCGGCCCCUCAGCCUGCCUGAAGAGAGGAAA` is recorded as 0.403.
`CUCCAGAGCAGGUGUUGUGCCUGGAGCUGCUCUCCUGGCCUCCUUGGAUUUAUCGCAAAAACUGAAGGUUUGCGCAAGAGACGAGGACAGCGGAAAGUGGACCUGCCAGG`: “RBNS enrichment (R)” 0.645.

Set 4
Target: Phosphate system positive regulatory protein PHO4, full length, GST-tagged (PHO4, Saccharomyces cerevisiae, UniProt P07270, residues 1-312)
Technique: competition protein-binding microarray
Form: double-stranded DNA, one strand shown
Sample: in vitro
Tested at: 2 µM
Setting: whole 60-bp probe, lowest competitor level
Together with: Cbf1 competitor, 0.05 µM
Direction: higher = stronger binding
Shared flanks, not repeated: … GTCTTGATTCGCTTGACGCTGCTG
Target sequence (chain): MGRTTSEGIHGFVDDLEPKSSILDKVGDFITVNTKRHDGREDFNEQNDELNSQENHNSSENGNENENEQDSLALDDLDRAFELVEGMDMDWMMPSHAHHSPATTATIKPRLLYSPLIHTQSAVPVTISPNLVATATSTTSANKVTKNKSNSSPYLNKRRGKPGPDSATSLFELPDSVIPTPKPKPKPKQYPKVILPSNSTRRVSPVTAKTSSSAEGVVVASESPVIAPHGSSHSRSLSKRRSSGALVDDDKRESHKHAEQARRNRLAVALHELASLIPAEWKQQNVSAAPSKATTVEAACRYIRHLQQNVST
`AAACCACCCTCTTTTCACGTTTCTTCAAGGCCAGTG` gave a fluorescence intensity of 8560 a.u.
For `CGTCCTAGTGATTTTCACGTGAAATCCATGAGGAAG`, the fluorescence intensity was 7490 a.u.
With `TGCGCAACAACTTGTCACCTAACTTTATGTCTAGAA` the fluorescence intensity was 3680 a.u.
The fluorescence intensity of `CTTCTGTAAATTTGTGCAGTGGGTGGACGCGCCCCG` is reported as 4570 a.u.
`CAATGGCTCAGTAACCTCGTGATGGAAAAAGGGCAA` gave a fluorescence intensity of 8780 a.u.
For `CGGGGTTAAGTTTTTCACGTGTACTGCTTGCAGCAG`, the fluorescence intensity was 10500 a.u.
The fluorescence intensity of `CGTCCTAGCGATTGATTCGTGGGTGCCATGAGGAAG` is reported as 6820 a.u.
For `GTCGAAAGATGACCTCACGTTGCAGCCACCGACACA`, the fluorescence intensity was 8940 a.u.
For `CATACCCAACCTTGTCGGGTGGGTGAAGATATTTGT`, the fluorescence intensity was 3890 a.u.
For `CACAAGTAGATTTGCCACGCACAACTTTAATACATG`, the fluorescence intensity was 8280 a.u.
`CGGGGTTAAGTTTGGCACGTGTTTTGCTTGCAGCAG` has a fluorescence intensity of 13200 a.u.
With `GTCTTGTCTCATTGTGGGGTGGGTGTCCCCACTTCA` the fluorescence intensity was 5750 a.u.
For `CGGGGTTAAGTTTGACTGGTGGGTGGCTTGCAGCAG`, the fluorescence intensity was 4750 a.u.
`CGTCTAAAAGTTCGGCACGTGACAAACCTGGTATTT` has a fluorescence intensity of 17300 a.u.
With `AAATTACTAAGTTTTCACGTGATGTACCCCGTATGA` the fluorescence intensity was 13100 a.u.
The fluorescence intensity of `CTTCTGTAAATTTGAGGTGTGGGTGGACGCGCCCCG` is reported as 6070 a.u.
The fluorescence intensity of `TGGGACAAAAATGATACCGTGATGGGCCAAAGTAGA` is reported as 4000 a.u.
For `CGGGGTTAAGTTTAGCACGTGTTTTGCTTGCAGCAG`, the fluorescence intensity was 18300 a.u.
